Published values of several laboratories.
Every numbered part comes from another study and shows a few of its results, in no order. Substitutions count along the parent as printed.
UniProt Q8WVD5, sequence (whole entry, looked up): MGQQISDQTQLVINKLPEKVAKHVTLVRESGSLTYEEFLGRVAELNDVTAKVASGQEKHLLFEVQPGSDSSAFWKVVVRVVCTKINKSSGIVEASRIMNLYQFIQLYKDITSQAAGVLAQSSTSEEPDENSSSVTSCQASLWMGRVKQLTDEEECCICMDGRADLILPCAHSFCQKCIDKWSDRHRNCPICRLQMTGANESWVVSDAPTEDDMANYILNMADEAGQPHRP
UniProt Q9Y2X8, sequence (whole entry, looked up): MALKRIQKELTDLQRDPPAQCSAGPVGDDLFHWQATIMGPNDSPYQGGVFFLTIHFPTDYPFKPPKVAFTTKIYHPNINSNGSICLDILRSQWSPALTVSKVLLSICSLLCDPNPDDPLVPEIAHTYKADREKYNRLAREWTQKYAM

Block 1 — technique: protein-binding microarray; form: double-stranded DNA, one strand shown; medium: in vitro; concentration: not given; direction: higher = stronger binding
Target: Protein C-ets-1 (ETS1, Homo sapiens, UniProt P14921, residues 1-441, full length assumed)
Notes: k-mer, scored over probes, only values ≥0.25
Construct (chain): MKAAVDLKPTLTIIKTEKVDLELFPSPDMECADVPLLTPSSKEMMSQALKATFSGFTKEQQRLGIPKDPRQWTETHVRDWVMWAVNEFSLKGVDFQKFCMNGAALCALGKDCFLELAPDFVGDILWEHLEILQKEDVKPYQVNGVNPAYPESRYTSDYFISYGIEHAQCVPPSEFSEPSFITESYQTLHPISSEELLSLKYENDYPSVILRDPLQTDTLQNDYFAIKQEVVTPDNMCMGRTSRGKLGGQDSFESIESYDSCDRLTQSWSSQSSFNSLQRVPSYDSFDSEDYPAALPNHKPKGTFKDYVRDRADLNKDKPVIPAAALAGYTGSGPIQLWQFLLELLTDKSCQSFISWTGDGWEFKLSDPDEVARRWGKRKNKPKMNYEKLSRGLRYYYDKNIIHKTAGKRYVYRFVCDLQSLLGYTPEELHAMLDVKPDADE
| Strand | E-score |
| --- | --- |
| CCGGTGGA | 0.275 |
| TCCCCGGA | 0.421 |
| TCACGGAA | 0.259 |
| ATCCGTTA | 0.35 |
| AGTCCCGG | 0.286 |
| ACGGAAGT | 0.479 |
| TCCGGGCA | 0.379 |
| AGCCTTCC | 0.29 |

Block 2 — technique: RNA Bind-n-Seq; form: RNA; medium: in vitro; concentration: 1 µM; notes: whole 134-nt RNA, ends assumed; together with: 150 mM KCl; reference: input library; direction: higher = stronger binding
Target: Ras GTPase-activating protein-binding protein 1, RRM domain (G3BP1, Homo sapiens, UniProt Q13283)
UniProt Q13283, sequence (whole entry, looked up): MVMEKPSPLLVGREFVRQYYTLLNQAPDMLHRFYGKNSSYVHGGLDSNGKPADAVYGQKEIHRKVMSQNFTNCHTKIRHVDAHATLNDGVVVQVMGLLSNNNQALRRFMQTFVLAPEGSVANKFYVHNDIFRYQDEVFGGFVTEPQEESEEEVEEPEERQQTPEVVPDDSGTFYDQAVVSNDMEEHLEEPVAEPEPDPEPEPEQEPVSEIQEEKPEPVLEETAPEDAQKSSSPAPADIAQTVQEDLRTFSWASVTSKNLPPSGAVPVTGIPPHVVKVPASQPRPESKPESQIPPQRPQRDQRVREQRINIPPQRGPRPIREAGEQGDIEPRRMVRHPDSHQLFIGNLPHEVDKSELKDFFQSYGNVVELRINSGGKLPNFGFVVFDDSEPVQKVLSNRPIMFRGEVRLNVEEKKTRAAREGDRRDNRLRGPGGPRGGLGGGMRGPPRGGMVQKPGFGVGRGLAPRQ
| Strand | log2 enrichment |
| --- | --- |
| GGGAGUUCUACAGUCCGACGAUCUGGGAGGUGGAUUUUGUUUAUUUUUUUAGCUCGUUUCCAGGGGUGGGAAUUUUUUUUUAAUAUGUGUCAUGAAUAAAGUUGUUUUUGAAAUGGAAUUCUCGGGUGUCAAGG | 2.03 |
| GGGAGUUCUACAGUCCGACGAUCGUCCUGUGCUACACAUCGUAUGUACCGAAUCGGUUUUUGGUUUUUUUGGUUUUUUUGGAAAGUAUUAUGUUACGCCGUUCGGAUCUGCACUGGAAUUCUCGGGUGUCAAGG | -0.203 |
| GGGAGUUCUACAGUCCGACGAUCACCAUACAGGUGGGCAUCUUUGGGAAGUGGGGCAAGGGGGGGAUAGGGAGGGGGGUAACACUUUGGGAACAGGUGGUCCCAGGUCGUUUCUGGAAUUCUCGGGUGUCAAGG | -0.605 |
| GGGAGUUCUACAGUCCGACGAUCUCAAGUCCUGUGCUACACAUCGUAUGUACCGAAUCGGUUUGGUUUGGUUUGGGGAAAGUAUUAUGUUACGCCGUUCGGAUCUGCACUUCCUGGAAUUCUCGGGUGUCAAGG | -0.292 |
| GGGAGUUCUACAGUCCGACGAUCUGGCCUGCACAUUCAGCUGCAUGAUGAAGUUCACUGUCAAGGACUGUGAUCCCACCACUGGGGAGACUGAUGACGAAGGCUAUGAGGAUGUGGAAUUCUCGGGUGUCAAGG | -0.269 |
| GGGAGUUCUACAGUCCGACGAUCUGGCCCUGGUGGCAUGCGGGGAGGAAUAGGUGGCCUCAUGGAUCGUGGUGGUCCCGGUGGAAUGUUCAGAGGUGGCCGUGGUGGAGACAGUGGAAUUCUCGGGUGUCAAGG | 0.734 |
| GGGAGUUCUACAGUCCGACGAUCUUAGAAGAAGAAGAUGGAGUGUGGGAGAAUGGACUUUCCUAUGAAUGCCGUACUCUGCUUUUCAAAGCAGUUCACAAUCUAUUGGAACGGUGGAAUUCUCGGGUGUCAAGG | -0.254 |
| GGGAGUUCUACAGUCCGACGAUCACCAUGCAGGUGGGCAUCUUUGGGAAGUGGGGCAAGGGGGGGAUAGGGAGGGGGGUAACUCUUUGGGAACAGGUGGUCCCAGGUCGUUUCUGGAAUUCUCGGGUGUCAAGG | 1.05 |

Other studies, line by line — medium: yeast; reference: not given; CCNA1: CCNA1, cyclin fold, Cln2 fusion (human)
P1: viral docking peptide; TSVRRALFTGGSD; partner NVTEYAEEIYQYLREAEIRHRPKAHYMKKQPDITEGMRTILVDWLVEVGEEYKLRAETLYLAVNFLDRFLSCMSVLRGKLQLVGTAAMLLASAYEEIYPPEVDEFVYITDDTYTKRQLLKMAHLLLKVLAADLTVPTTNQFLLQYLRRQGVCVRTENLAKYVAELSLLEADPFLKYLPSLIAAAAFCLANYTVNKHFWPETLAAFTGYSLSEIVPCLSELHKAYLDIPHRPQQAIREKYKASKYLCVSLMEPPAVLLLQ
| Substance | target | technique | notes | direction | endpoint | value |
| --- | --- | --- | --- | --- | --- | --- |
| P1 R5S | CCNA1 | yeast growth competition, sequencing | strong parent motif | higher = stronger binding | normalised enrichment score | 0.0779 |
| RNF141 RING domain (UniProt Q8WVD5) | UBE2D4 UBC core domain (UniProt Q9Y2X8) | yeast two-hybrid | mostly zero background | higher = stronger interaction | lacZ reporter activity | 0 |
| P1 G11R | CCNA1 | yeast growth competition, sequencing | strong parent motif | higher = stronger binding | normalised enrichment score | 0.518 |

For quick reference, copied from above (block 1):
| Strand | E-score |
| --- | --- |
| TCCCCGGA | 0.421 |
| TCACGGAA | 0.259 |
